Experimental data gathered from unrelated publications.
Several values in a cell are separate wells, animals, samples, runs or records. ± marks the error that the study gave.

Compound	assay	test system	conditions	how to read	measurement	value
CC[C@H](C)[C@H](NC(=O)[C@H](CCCNC(=N)N)NC(=O)[C@H](CCCCN)NC(=O)[C@H](Cc1ccc(O)cc1)NC(=O)[C@H](CC(=O)O)NC(=O)[C@H](C)NC(=O)CNC(=O)CCOCCOCCOCCNC(=O)CN1CCN(CC(=O)O)CCN(CC(=O)O)CCN(CC(=O)O)CC1)C(=O)N[C@H](C(=O)N[C@H](C(=O)N[C@@H](CCCCN)C(=O)N[C@H](C(=O)N[C@@H](CC(N)=O)C(N)=O)C(C)C)C(C)C)[C@@H](C)O [copper-64 labelled]	ex vivo gamma counting	C57BL/6J male mice, B16-F10 tumour, liver	intravenous, 1.85 MBq, 20 min	–	tissue uptake	3.76 ± 0.511 %ID/g
CC(C)C[C@@H](NC(=O)[C@@H](CCCNC(=N)N)NC(=O)[C@@H](Cc1c[nH]cn1)NC(=O)[C@@H](Cc1c[nH]c2ccccc12)NC(=O)[C@@H](Cc1c[nH]cn1)NC(=O)[C@@H](Cc1ccccc1)NC(=O)[C@H](NC(=O)[C@@H](Cc1ccc(O)cc1)NC(=O)CNC(=O)CNC(=O)CCOCCOCCOCCNC(=O)CN1CCN(CC(=O)O)CCN(CC(=O)O)CC1)[C@H](C)O)C(=O)N[C@H](CC(N)=O)C(=O)N1CCC[C@@H]1C(=O)O [gallium-68 labelled]	OLINDA/EXM	adult female human, LLI wall	extrapolated from C57BL/6 mice	–	organ absorbed dose	0.0136 ± 0.0001 mSv/MBq
Cc1ccccc1-c1ccc(-c2nc(-c3ccc(CN(C)CCCC(=O)O)c([18F])c3)no2)cc1C(F)(F)F	–	rat, liver	1 h	–	tracer uptake	1.68 %ID/g
COc1cccc(O)c1C(=O)/C=C/c1ccc2cc(N3CCCC3)ccc2c1	–	C57BL/6J mice, kidney	intraperitoneal, 50 mg/kg single, 4 h	–	tissue concentration	158 ng/g
CC(C)C[C@H](NC(=O)[C@H](C)NC(=O)[C@H](CCCCN)NC(=O)CCNC(=S)Nc1ccc2c(c1)C(=O)OC21c2ccc(O)cc2Oc2cc(O)ccc21)C(=O)N[C@@H](CCC(=O)O)C(=O)N[C@H](C(=O)N[C@@H](CC(C)C)C(=O)N[C@@H](CCCNC(=N)N)C(=O)N[C@@H](CCCNC(=N)N)C(=O)N[C@H](C(=O)N[C@@]1(C)CCCC=CCCC[C@@](C)(C(=O)N[C@@H](CCCNC(=N)N)C(=O)N[C@@H](CC(N)=O)C(=O)N[C@@H](Cc2c[nH]cn2)C(=O)N[C@@H](CCC(=O)O)C(=O)N[C@H](C(=O)N[C@@H](C)C(=O)N[C@@H](Cc2ccccc2)C(N)=O)[C@@H](C)O)NC(=O)[C@H](C(C)C)NC(=O)CNC(=O)[C@H](CC(=O)O)NC1=O)C(C)C)[C@@H](C)O	circular dichroism	potassium phosphate buffer	20 µM, pH 7.5	–	α-helicity	81%
CC[C@H](C)[C@H](NC(=O)[C@H](CCCCN)NC(=O)CNC(=O)[C@H](CC(C)C)NC(=O)[C@H](Cc1ccccc1)NC(=O)[C@H](CCCCN)NC(=O)[C@H](CO)NC(=O)[C@H](Cc1ccccc1)NC(=O)[C@H](Cc1c[nH]c2ccccc12)NC(=O)[C@H](CCC(N)=O)NC(=O)[C@@H](NC(=O)[C@H](Cc1ccccc1)NC(=O)CCCCCNC(=O)CN1CCN(CC(=O)O)CCN(CC(=O)O)CCN(CC(=O)O)CC1)C(C)C)C(=O)N[C@@H](CCC(=O)O)C(=O)N1CCC[C@H]1C(=O)N[C@@H](CC(=O)O)C(=O)N[C@H](C(=O)N[C@@H](CO)C(=O)N[C@@H](CCC(N)=O)C(=O)N[C@H](C(=O)N[C@@H](CCC(N)=O)C(=O)N[C@@H](CC(=O)O)C(=O)N1CCC[C@H]1C(=O)N[C@@H](CC(N)=O)C(=O)N[C@@H](CC(=O)O)C(=O)N[C@@H](CCC(N)=O)C(=O)N[C@@H](Cc1ccc(O)cc1)C(=O)N[C@@H](CCC(=O)O)C(=O)N1CCC[C@H]1C(=O)N[C@@H](Cc1ccccc1)C(=O)O)C(C)C)C(C)C [copper-64 labelled]	–	C57BL/6 male mouse, tumour-naive, large intestine	0.5 h	–	tissue uptake	4.64 ± 0.2 %ID/g
CCCCCCCCCCCCCCCC(=O)N[C@@H](CCC(=O)NCCOCCOCCC(=O)NCCOCCOCCC(=O)NCCCC[C@H](NC(=O)[C@H](CC(=O)O)NC(=O)[C@H](CC(C)C)NC(=O)[C@H](Cc1ccc(O)cc1)NC(=O)[C@H](CCCCN)NC(=O)[C@H](CO)NC(=O)[C@H](Cc1ccc(O)cc1)NC(=O)[C@H](CC(=O)O)NC(=O)[C@H](CO)NC(=O)[C@@H](NC(=O)[C@H](Cc1ccccc1)NC(=O)[C@@H](NC(=O)CNC(=O)[C@H](CCC(N)=O)NC(=O)[C@@H](CO)NC(=O)[C@@H](N)Cc1c[nH]cn1)[C@@H](C)O)[C@@H](C)O)C(=O)N[C@@H](CCCNC(=N)N)C(=O)N[C@@H](CCCNC(=N)N)C(=O)N[C@@H](C)C(=O)N[C@@H](CCC(N)=O)C(=O)N[C@@H](CC(=O)O)C(=O)N[C@@H](Cc1ccccc1)C(=O)N[C@H](C(=O)N[C@@H](CCC(N)=O)C(=O)N[C@@H](Cc1c[nH]c2ccccc12)C(=O)N[C@@H](CC(C)C)C(=O)N[C@@H](CC(C)C)C(=O)N[C@@H](CC(N)=O)C(=O)N[C@H](C(=O)NCC(=O)NCC(=O)N1CCC[C@H]1C(=O)N[C@@H](CO)C(=O)N[C@@H](CO)C(=O)NCC(=O)N[C@@H](C)C(=O)N1CCC[C@H]1C(=O)N1CCC[C@H]1C(=O)N1CCC[C@H]1C(=O)N[C@@H](CO)C(N)=O)[C@@H](C)O)C(C)C)C(=O)O	–	rhesus monkey, female, plasma	subcutaneous, 300 µg/kg, day 28, toxicokinetics, mean	–	AUC(0-t)	3370 ng·h/mL
CSCC[C@H](N)C(=O)N[C@@H](C)C(=O)N[C@@H](Cc1c[nH]c2ccccc12)C(=O)N[C@@H](Cc1c[nH]cn1)C(=O)N[C@@H](CC(=O)O)C(=O)N[C@@H](CC(=O)O)C(=O)N[C@@H](CCC(=O)O)C(=O)N[C@@H](CCC(=O)O)C(=O)N[C@@H](Cc1ccccc1)C(=O)N[C@@H](C)C(=O)N[C@@H](CCCNC(=N)N)C(=O)N[C@@H](CCCNC(=N)N)C(=O)N[C@@H](CCCNC(=N)N)C(=O)N[C@@H](CCCNC(=N)N)C(=O)NCCCCCC(=O)NCCCCC(NC(=O)CCCCCNC(=O)[C@H](CCCNC(=N)N)NC(=O)[C@H](CCCNC(=N)N)NC(=O)[C@H](CCCNC(=N)N)NC(=O)[C@H](CCCNC(=N)N)NC(=O)[C@H](C)NC(=O)[C@H](Cc1ccccc1)NC(=O)[C@H](CCC(=O)O)NC(=O)[C@H](CCC(=O)O)NC(=O)[C@H](CC(=O)O)NC(=O)[C@H](CC(=O)O)NC(=O)[C@H](Cc1c[nH]cn1)NC(=O)[C@H](Cc1c[nH]c2ccccc12)NC(=O)[C@H](C)NC(=O)[C@@H](N)CCSC)C(=O)NCCCCC(NC(=O)C(CCCCNC(=O)CCCCCNC(=O)[C@H](CCCNC(=N)N)NC(=O)[C@H](CCCNC(=N)N)NC(=O)[C@H](CCCNC(=N)N)NC(=O)[C@H](CCCNC(=N)N)NC(=O)[C@H](C)NC(=O)[C@H](Cc1ccccc1)NC(=O)[C@H](CCC(=O)O)NC(=O)[C@H](CCC(=O)O)NC(=O)[C@H](CC(=O)O)NC(=O)[C@H](CC(=O)O)NC(=O)[C@H](Cc1c[nH]cn1)NC(=O)[C@H](Cc1c[nH]c2ccccc12)NC(=O)[C@H](C)NC(=O)[C@@H](N)CCSC)NC(=O)CCCCCNC(=O)[C@H](CCCNC(=N)N)NC(=O)[C@H](CCCNC(=N)N)NC(=O)[C@H](CCCNC(=N)N)NC(=O)[C@H](CCCNC(=N)N)NC(=O)[C@H](C)NC(=O)[C@H](Cc1ccccc1)NC(=O)[C@H](CCC(=O)O)NC(=O)[C@H](CCC(=O)O)NC(=O)[C@H](CC(=O)O)NC(=O)[C@H](CC(=O)O)NC(=O)[C@H](Cc1c[nH]cn1)NC(=O)[C@H](Cc1c[nH]c2ccccc12)NC(=O)[C@H](C)NC(=O)[C@@H](N)CCSC)C(N)=O (stereo partly drawn)	–	C57BL/6 mouse female, ovary	dose not given, 6 h	reference: total	tissue distribution	0.29% and 0.36% and 0.28%
CN1Cc2cc(Cl)ccc2-n2c(nnc2C2CCN(c3cccc(F)n3)CC2)C1	–	Sprague-Dawley rats male, striatum	intravenous, 0.03 mg/kg, 60 min	–	concentration	1.19 ± 0.53 ng/mL
CC[C@H](C)[C@H](NC(=O)[C@H](CC(C)C)NC(=O)[C@H](CO)NC(=O)[C@H](CC(C)C)NC(=O)[C@H](CC(C)C)NC(=O)[C@@H](N)CO)C(=O)N[C@@H](CCCNC(=N)N)C(=O)N[C@@H](CCCCN)C(=O)N[C@@H](CC(C)C)C(=O)N[C@H](C(=O)N[C@H](C(=O)O)[C@@H](C)O)[C@@H](C)CC	–	mouse red blood cells	–	–	minimal haemolytic concentration	100 µM
CC(C)[C@H](NC(=O)[C@@H](NC(=O)[C@H](CCCNC(=N)N)NC(=O)[C@H](CCCNC(=N)N)NC(=O)[C@H](CCCNC(=N)N)NC(=O)[C@H](CCC(N)=O)NC(=O)[C@H](CCCNC(=N)N)NC(=O)[C@H](CCCNC(=N)N)NC(=O)[C@H](CCCCN)NC(=O)[C@H](CCCCN)NC(=O)[C@H](CCCNC(=N)N)NC(=O)CN)[C@@H](C)O)C(=O)N[C@H](C(=O)N[C@@H](CO)C(=O)N1CCC[C@H]1C(=O)O)[C@@H](C)O	–	ICR mice, female, liver	intranasal, 20 mg/kg daily, 4 weeks	–	organ weight	1.46 ± 0.235 g
CCCCC[C@@H]1NC(=O)[C@@H](C)N(C)C(=O)[C@H](CCCCC)OC(=O)[C@@H](C)N(C)C(=O)[C@H](CCCCC)NC(=O)[C@@H](C)N(C)C(=O)[C@H](CCCCC)OC(=O)[C@@H](C)N(C)C1=O	PAMPA, HPLC-UV	–	500 µM, pH 7.4	–	log Papp	-5.23 ± 0.04
C=CCN1CCC23c4c5ccc(OC(=O)c6ccc(NC(=O)OC(C)(C)C)cc6)c4OC2C(=O)CCC3(O)C1C5 (stereo not drawn)	–	rat plasma	0 h, added: loperamide 100 µM	–	remaining compound	97.6% and 98.3% and 104%
CC(C)C[C@H](NC(=O)CNC(=O)[C@H](Cc1ccccc1)NC(=O)[C@@H](NC(=O)[C@@H](NC(=O)c1cccc(S(=O)(=O)F)c1)[C@@H](C)O)C(C)C)C(=O)N[C@@H](CC(N)=O)C(=O)N[C@H](C(=O)N[C@@H](Cc1c[nH]c2ccccc12)C(=O)N[C@@H](CCCCN)C(=O)N[C@@H](CCCNC(=N)N)C(=O)N[C@@H](Cc1ccc(O)cc1)C(=O)N[C@@H](CO)C(=O)N[C@@H](CCCCN)C(=O)NCC(=O)N[C@@H](CCCCNc1ccc([N+](=O)[O-])cc1[N+](=O)[O-])C(N)=O)C(C)C	chemical stability, LC-MS, UV trace	PBS/DMSO/water	52 µM, 24 h, 10% DMSO, 80% water	–	intact compound remaining	~50%
CC(C)=CCC/C(C)=C\CCn1cc(CC(P(=O)(O)O)P(=O)(O)O)nn1	qRT-PCR, refers to: Slco2a1 and Slc10a1	CD-1 mice, liver	intravenous, 0.3 mg/kg	reference: control	mRNA level	increased
C[C@H](O)[C@@H](NC(=O)[C@H]1CCCN1C(=O)[C@@H](CCCCN)NC(=O)[C@@H](CO)NC(=O)[C@@H](Cc1ccc(O)cc1)NC(=O)[C@@H](CC(N)=O)NC(=O)CCOCCOCCOCCNC(=O)CN1CCN(CC(=O)O)CCN(CC(=O)O)CCN(CC(=O)O)CC1)C(=O)N[C@H](CC(=O)O)C(=O)N[C@H](CCCNC(=N)N)C(=O)N[C@H](CCC(N)=O)C(=O)N[C@H](Cc1ccc(O)cc1)C(=O)N[C@H](Cc1c[nH]cn1)C(=O)N[C@H](Cc1ccccc1)C(N)=O [gallium-68 labelled]	–	BALB/c nude mice U-87 MG tumour, spleen	intravenous, 1.85 MBq, 1 h, radiolabelled	–	tissue uptake	0.14 ± 0.06 %ID/g
O=C1NC2(CC2)COc2ncc(F)cc2[C@H]2COCCN2c2ccn3ncc1c3n2	–	Sprague-Dawley rats, female, blood	oral, 20 mg/kg/day, end of recovery, 4-week subacute toxicity	–	haematocrit	38.9 ± 2%
CC(CCC(=O)NCC(=O)O)C1CCC2C3C(O)CC4CC(OC5OC(C(=O)O)C(O)C(O)C5O)CCC4(C)C3CCC12C (stereo not drawn)	–	women, T/T genotype, plasma	dose not given, geometric mean	–	glucuronide to parent ratio	0.046

Some of these lines once more:
Compound	assay	test system	conditions	how to read	measurement	value
CCCCC[C@@H]1NC(=O)[C@@H](C)N(C)C(=O)[C@H](CCCCC)OC(=O)[C@@H](C)N(C)C(=O)[C@H](CCCCC)NC(=O)[C@@H](C)N(C)C(=O)[C@H](CCCCC)OC(=O)[C@@H](C)N(C)C1=O	PAMPA, HPLC-UV	–	500 µM, pH 7.4	–	log Papp	-5.23 ± 0.04
C[C@H](O)[C@@H](NC(=O)[C@H]1CCCN1C(=O)[C@@H](CCCCN)NC(=O)[C@@H](CO)NC(=O)[C@@H](Cc1ccc(O)cc1)NC(=O)[C@@H](CC(N)=O)NC(=O)CCOCCOCCOCCNC(=O)CN1CCN(CC(=O)O)CCN(CC(=O)O)CCN(CC(=O)O)CC1)C(=O)N[C@H](CC(=O)O)C(=O)N[C@H](CCCNC(=N)N)C(=O)N[C@H](CCC(N)=O)C(=O)N[C@H](Cc1ccc(O)cc1)C(=O)N[C@H](Cc1c[nH]cn1)C(=O)N[C@H](Cc1ccccc1)C(N)=O [gallium-68 labelled]	–	BALB/c nude mice U-87 MG tumour, spleen	intravenous, 1.85 MBq, 1 h, radiolabelled	–	tissue uptake	0.14 ± 0.06 %ID/g
